Measured values from different studies.
Every numbered part comes from another study and shows a few of its results, in no order. Substitutions count along the parent as printed.
Sequence of UniProt Q6XUX3 (whole entry, looked up): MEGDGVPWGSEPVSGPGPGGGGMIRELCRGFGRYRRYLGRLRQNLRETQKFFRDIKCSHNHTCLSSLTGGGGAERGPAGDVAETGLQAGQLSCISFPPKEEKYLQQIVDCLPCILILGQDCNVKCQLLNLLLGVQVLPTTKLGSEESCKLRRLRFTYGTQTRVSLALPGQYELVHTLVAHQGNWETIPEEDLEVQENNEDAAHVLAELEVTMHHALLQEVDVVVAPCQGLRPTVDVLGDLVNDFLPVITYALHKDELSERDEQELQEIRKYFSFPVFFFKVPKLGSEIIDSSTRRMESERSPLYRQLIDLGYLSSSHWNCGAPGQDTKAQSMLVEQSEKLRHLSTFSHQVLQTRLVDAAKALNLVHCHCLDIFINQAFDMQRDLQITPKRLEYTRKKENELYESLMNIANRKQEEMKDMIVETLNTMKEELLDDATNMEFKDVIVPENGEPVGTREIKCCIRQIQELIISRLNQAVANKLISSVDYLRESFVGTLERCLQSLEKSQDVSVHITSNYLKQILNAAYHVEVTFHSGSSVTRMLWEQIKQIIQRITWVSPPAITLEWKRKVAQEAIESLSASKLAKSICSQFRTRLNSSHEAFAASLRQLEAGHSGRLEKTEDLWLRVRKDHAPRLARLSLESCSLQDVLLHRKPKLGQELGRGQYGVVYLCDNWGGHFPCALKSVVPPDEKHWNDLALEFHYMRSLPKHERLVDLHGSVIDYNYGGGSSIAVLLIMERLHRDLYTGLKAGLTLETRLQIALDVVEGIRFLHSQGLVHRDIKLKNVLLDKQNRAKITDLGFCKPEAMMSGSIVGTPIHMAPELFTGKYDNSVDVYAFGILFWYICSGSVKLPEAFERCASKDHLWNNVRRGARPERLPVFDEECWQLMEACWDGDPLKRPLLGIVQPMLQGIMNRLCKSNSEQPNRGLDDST

Series 1
Target: Ras GTPase-activating protein-binding protein 1, full length (G3BP1, Homo sapiens, UniProt Q13283)
Sequence of UniProt Q13283 (whole entry, looked up): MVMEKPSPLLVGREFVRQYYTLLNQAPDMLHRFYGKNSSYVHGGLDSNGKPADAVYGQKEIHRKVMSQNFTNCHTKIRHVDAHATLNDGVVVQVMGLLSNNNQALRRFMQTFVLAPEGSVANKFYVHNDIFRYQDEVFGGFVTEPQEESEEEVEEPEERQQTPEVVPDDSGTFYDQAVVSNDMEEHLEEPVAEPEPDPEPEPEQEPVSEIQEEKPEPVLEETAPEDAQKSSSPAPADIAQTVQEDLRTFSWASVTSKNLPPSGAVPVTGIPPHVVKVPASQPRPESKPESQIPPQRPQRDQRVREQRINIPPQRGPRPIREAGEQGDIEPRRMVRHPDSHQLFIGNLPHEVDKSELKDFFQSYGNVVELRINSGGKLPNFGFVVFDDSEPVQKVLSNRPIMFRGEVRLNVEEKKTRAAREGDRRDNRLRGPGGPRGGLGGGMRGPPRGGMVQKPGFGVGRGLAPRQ
Technique: RNA Bind-n-Seq
Molecule type: RNA
Matrix: in vitro
Tested at: 200 nM
Setting: whole 134-nt RNA, ends assumed
Added: 150 mM KCl
Relative to: input library
Reading: higher = stronger binding
All sequences stand within: GGGAGUUCUACAGUCCGACGAUC … UGGAAUUCUCGGGUGUCAAGG
`UCCUGUGCUACACAUCGUAUGUACCGAAUCGGGAAAAAGGGGAAAAAGGGAAAAAGGGGAAAGUAUUAUGUUACGCCGUUCGGAUCUGCA` has a log2 enrichment of -0.0238.
The log2 enrichment of `CAAGUCCUGUGCUACACAUCGUAUGUACCGAAUCGGAAAGGUUUUUUUGGAAAGGAAAGUAUUAUGUUACGCCGUUCGGAUCUGCACUUC` is reported as -1.4.
With `GAAAUUAUGGAAGUGGAAAUUACAAUGAUUUUGGAAAUUAUAACCAGCAACCUUCUAACUACGGUCCAAUGAAGAGUGGAAACUUUGGUG` the log2 enrichment was -1.32.
For `CAAGUCCUGUGCUACACAUCGUAUGUACCGAAUCGGGGUUUGGGUUUGGGGUUUGGAAAGUAUUAUGUUACGCCGUUCGGAUCUGCACUU`, the log2 enrichment was -0.221.
The log2 enrichment of `UCCUGUGCUACACAUCGUAUGUACCGAAUCGGGGUUUUUUUGGGGAAAAAGGGGUGGGGAAAGUAUUAUGUUACGCCGUUCGGAUCUGCA` is reported as 0.616.
`AAGUCCUGUGCUACACAUCGUAUGUACCGAAUCGGGCCCCGGCCCCGGGGCCCCGGGAAAGUAUUAUGUUACGCCGUUCGGAUCUGCACU` has a log2 enrichment of -1.31.
`CUCAAGUCCUGUGCUACACAUCGUAUGUACCGAAUCGGGGUUGGUUGGGUUGGAAAGUAUUAUGUUACGCCGUUCGGAUCUGCACUUCCA` gave a log2 enrichment of 0.108.
With `CACAGACAACACGCACCCACACAGUCACAGAGGGAAGGGGUUGGGAUGGGGACAGGGUGCACAGCAGGGCGGGGUAGGACCCCAGCCCCU` the log2 enrichment was 1.86.

Series 2
Change: D75C
Target: ABI1, truncated, D143A, DHFR fusion (Arabidopsis thaliana)
Technique: DHFR PCA, deep sequencing
Matrix: yeast
Setting: methotrexate growth selection, single substitutions
Relative to: wild-type fitted maximum
Reading: higher = stronger binding
Parent: PYL1, truncated, DHFR fusion (Arabidopsis thaliana); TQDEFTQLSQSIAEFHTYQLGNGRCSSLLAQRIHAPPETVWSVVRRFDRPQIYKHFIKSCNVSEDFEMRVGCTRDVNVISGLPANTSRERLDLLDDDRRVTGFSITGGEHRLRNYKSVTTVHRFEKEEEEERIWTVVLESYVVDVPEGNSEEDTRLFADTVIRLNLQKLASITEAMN; partner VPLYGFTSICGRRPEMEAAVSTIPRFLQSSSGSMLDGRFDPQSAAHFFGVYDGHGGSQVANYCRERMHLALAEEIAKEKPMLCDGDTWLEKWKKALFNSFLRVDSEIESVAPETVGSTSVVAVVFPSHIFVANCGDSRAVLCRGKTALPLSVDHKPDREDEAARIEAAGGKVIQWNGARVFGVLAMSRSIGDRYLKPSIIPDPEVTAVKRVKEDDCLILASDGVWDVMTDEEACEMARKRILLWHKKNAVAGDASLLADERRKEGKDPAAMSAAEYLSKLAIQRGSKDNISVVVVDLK
The “relative binding score” was 21.5% (added: (+)-ABA 0.11 µM).
The “relative binding score” was 54.3% (added: (+)-ABA 1.4 µM).
The “relative binding score” was 94.8% (added: (+)-ABA 2500 µM).
It gave 71.8% for “relative binding score” (added: (+)-ABA 4.8 µM).
It gave 6.74% for “relative binding score” (added: (+)-ABA 0.0091 µM).
For added: (+)-ABA 710 µM: “relative binding score” read 100%.

Series 3
Target: PABPC1L2, full length, GST fusion (mouse, UniProt A0ABA7IW68)
Technique: RNAcompete
Molecule type: RNA
Matrix: in vitro
Tested at: 20 nM
Setting: 7-mer, probes averaged, single round
Relative to: mean of 7-mers
Reading: higher = stronger binding
Target sequence (chain): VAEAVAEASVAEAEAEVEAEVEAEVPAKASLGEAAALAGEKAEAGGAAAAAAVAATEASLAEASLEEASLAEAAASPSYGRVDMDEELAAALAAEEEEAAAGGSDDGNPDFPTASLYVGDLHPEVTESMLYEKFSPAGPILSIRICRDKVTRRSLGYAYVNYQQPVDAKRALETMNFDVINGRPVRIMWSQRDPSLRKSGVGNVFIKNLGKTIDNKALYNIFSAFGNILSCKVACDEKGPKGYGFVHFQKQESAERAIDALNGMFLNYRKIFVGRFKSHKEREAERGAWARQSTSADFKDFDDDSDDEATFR
`GUGUCUU` gave a 7-mer Z-score of -0.3.
`UCGGAUC` has a 7-mer Z-score of -0.137.
With `AGGAGGC` the 7-mer Z-score was 0.18.
For `UGUUAGC`, the 7-mer Z-score was -0.306.
`UGGUGCA` gave a 7-mer Z-score of 0.173.
For `CAACUCG`, the 7-mer Z-score was -0.113.
With `GGCUAAA` the 7-mer Z-score was 0.717.
`AUGCCCU` gave a 7-mer Z-score of -0.289.

Other studies, line by line
The remaining binding of `CCC(=O)N[C@@H]1CC[C@H](C(=O)N(C)c2ccc(-c3nc4ccccc4o3)cc2)C1` is reported as 93% (Dual serine/threonine and tyrosine protein kinase (DSTYK, Homo sapiens, UniProt Q6XUX3); cell-free assay, competition with immobilised ligand; 1 µM).

For quick reference, copied from above (series 3):
For `UGUUAGC`, the 7-mer Z-score was -0.306.
`UGGUGCA` gave a 7-mer Z-score of 0.173.
For `CAACUCG`, the 7-mer Z-score was -0.113.
